Measurements from different studies.
Each numbered part is a random draw from the data of one study; scales do not carry over between parts.
Chain of UniProt P10721 (whole entry, unmodified, looked up): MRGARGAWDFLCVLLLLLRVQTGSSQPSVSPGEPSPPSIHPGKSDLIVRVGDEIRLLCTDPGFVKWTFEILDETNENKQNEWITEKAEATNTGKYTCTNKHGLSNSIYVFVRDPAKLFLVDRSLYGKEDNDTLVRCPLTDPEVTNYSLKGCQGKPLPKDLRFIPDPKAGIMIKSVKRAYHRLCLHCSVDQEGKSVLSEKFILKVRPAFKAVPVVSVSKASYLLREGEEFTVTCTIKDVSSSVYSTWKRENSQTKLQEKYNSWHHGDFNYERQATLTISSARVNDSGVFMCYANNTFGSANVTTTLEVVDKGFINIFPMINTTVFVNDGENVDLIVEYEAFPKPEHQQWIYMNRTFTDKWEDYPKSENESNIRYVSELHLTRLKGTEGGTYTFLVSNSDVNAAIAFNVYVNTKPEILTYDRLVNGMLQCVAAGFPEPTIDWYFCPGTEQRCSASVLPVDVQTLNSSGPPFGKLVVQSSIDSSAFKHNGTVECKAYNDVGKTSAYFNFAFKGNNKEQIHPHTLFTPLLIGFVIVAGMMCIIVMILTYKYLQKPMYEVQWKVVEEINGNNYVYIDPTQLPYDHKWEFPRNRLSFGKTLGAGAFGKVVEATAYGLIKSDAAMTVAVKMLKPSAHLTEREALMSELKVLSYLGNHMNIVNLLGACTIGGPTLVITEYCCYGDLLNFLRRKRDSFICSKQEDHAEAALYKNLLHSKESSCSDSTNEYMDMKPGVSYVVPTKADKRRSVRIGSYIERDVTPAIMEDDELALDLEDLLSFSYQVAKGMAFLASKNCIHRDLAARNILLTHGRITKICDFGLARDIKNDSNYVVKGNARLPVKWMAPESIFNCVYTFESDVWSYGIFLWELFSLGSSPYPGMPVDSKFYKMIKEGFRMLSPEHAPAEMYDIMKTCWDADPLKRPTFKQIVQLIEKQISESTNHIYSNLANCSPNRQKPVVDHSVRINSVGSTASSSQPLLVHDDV
Chain of UniProt Q86UX6 (whole entry, looked up): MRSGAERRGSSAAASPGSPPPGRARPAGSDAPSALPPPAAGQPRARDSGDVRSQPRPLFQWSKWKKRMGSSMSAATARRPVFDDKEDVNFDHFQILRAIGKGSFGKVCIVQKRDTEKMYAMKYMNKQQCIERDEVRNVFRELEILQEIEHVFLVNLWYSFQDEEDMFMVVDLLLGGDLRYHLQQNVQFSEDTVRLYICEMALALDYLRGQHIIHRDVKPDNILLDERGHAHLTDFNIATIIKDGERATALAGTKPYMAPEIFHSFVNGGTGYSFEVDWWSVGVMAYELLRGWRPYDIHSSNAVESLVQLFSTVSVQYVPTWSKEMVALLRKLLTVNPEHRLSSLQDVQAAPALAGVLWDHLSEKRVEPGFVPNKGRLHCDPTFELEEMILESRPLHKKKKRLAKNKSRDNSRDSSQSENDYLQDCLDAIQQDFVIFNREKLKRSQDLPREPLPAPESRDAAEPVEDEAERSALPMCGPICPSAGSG
Chain of UniProt Q00532 (whole entry, looked up): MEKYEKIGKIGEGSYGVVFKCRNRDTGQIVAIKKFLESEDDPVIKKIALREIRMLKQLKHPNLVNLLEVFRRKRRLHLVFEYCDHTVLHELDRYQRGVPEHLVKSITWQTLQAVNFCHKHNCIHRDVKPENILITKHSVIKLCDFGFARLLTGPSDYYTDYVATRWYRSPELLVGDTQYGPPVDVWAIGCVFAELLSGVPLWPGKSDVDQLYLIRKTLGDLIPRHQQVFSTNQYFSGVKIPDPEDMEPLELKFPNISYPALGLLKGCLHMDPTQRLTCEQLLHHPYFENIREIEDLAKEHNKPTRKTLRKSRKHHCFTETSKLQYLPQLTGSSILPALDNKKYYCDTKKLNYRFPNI
Chain of UniProt P78356 (whole entry, looked up): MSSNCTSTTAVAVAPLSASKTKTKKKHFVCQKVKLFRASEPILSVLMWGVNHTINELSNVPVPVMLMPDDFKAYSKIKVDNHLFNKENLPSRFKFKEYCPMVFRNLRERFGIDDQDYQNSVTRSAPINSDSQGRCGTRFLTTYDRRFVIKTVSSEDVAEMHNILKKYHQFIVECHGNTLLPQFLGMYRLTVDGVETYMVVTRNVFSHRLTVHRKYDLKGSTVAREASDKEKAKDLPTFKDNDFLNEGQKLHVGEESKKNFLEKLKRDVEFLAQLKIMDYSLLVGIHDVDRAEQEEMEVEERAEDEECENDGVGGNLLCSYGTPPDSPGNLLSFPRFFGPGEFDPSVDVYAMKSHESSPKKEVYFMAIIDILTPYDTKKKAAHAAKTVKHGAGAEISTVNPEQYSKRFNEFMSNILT

Sample 1
Target: Tyrosine-protein kinase Blk (BLK, Homo sapiens, UniProt P51451)
Chain of UniProt P51451 (whole entry, looked up): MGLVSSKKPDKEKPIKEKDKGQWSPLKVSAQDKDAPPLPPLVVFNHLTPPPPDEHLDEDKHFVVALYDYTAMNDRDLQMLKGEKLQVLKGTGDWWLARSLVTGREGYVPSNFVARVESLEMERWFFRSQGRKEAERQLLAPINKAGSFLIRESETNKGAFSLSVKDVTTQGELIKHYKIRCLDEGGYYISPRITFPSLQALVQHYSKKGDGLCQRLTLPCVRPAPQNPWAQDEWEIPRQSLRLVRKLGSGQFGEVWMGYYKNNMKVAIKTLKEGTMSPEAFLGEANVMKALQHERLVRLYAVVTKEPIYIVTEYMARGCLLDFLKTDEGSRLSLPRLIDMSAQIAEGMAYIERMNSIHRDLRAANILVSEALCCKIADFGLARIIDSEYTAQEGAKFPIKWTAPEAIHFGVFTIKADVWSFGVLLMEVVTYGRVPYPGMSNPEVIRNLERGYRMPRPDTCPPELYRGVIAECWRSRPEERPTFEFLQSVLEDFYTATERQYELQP
Effect on: enzyme activity
Mode: inhibitor
Tested at: 0.5 µM
Relative to: control
`CCN(CC)CCNC(=O)c1c(C)[nH]c(/C=C2\C(=O)Nc3ccc(Cl)cc32)c1C` has a remaining activity of 15.8%.
The remaining activity of `O=C1c2ccccc2-c2n[nH]c3cccc1c23` is reported as 102%.
With `O=C(NC(NC(=S)Nc1ccc(F)c([N+](=O)[O-])c1)C(Cl)(Cl)Cl)C(c1ccccc1)c1ccccc1` (stereo not drawn) the remaining activity was 110%.
For `COc1cc2ncnc(Nc3ccc(O)c(Br)c3)c2cc1OC`, the remaining activity was 83.8%.
With `Cc1cn(-c2cc(NC(=O)c3ccc(C)c(Nc4nccc(-c5cccnc5)n4)c3)cc(C(F)(F)F)c2)cn1` the remaining activity was 87.6%.
With `COc1cc2ncnc(Nc3cccc(Cl)c3)c2cc1OC` the remaining activity was 68.2%.
`CCN(CC)CCNC(=O)c1c(C)[nH]c(/C=C2\C(=O)Nc3ccc(F)cc32)c1C` has a remaining activity of 28.7%.
`CCN(CC)C(=O)c1ccc(Nc2nc(OCC3CCCCC3)c3[nH]cnc3n2)cc1` gave a remaining activity of 60.9%.
With `N#Cc1c(NC(=O)c2cccc3ccccc23)sc2c1CCCC2` the remaining activity was 105%.
`O=C(Nc1cccc(Nc2nccc(Nc3cccc(C(F)(F)F)c3)n2)c1)C1CC1` gave a remaining activity of 99.8%.
For `Cc1nc2cc3nc(-c4cccs4)cnc3cc2n1C`, the remaining activity was 99.8%.
`Cn1nc2c3c(cccc31)C(=O)c1ccccc1-2` gave a remaining activity of 106%.
For `N#C/C(=C\c1ccc(O)c(O)c1)C(=O)NCc1ccccc1`, the remaining activity was 95.6%.
With `c1ccc(-c2[nH]ncc2-c2ccnc3ccccc23)nc1` the remaining activity was 99.9%.
`CN([C@@H](Cc1ccc(OS(=O)(=O)c2cccc3cnccc23)cc1)C(=O)N1CCN(c2ccccc2)CC1)S(=O)(=O)c1cccc2cnccc12` has a remaining activity of 102%.
`Cc1cc2ncc(-c3ccccc3)nc2cc1C` gave a remaining activity of 96.5%.
The remaining activity of `CN(C)C[C@H]1CCn2c(c(C3=C(c4cn(C)c5ccccc45)C(=O)NC3=O)c3ccccc32)C1` is reported as 103%.
For `Ic1cccc(CSc2nnc(-c3ccncc3)o2)c1`, the remaining activity was 103%.
`c1ccc(-c2cnc(Nc3ccc(OCCN4CCCC4)cc3)s2)cc1` gave a remaining activity of 92%.
The remaining activity of `COc1cc2c(cc1OC)-c1[nH]nc(Nc3cccc(F)c3)c1C2` is reported as 74.2%.

Sample 2
Compound: C[C@H](c1cccc(C#N)c1)n1cc(Cl)cc(C(N)=O)c1=N
Effect on: cell-free assay
Technique: competition with immobilised ligand
Tested at: 1 µM
The remaining binding was 93% (Mast/stem cell growth factor receptor Kit (KIT, Homo sapiens, UniProt P10721, L576P)).
For cAMP-dependent protein kinase catalytic subunit alpha (PRKACA, Homo sapiens, UniProt P17612): remaining binding read 100%.
Serine/threonine-protein kinase 32C (STK32C, Homo sapiens, UniProt Q86UX6) — remaining binding: 100%.
It gave 98% for remaining binding (Cyclin-dependent kinase-like 1 (CDKL1, Homo sapiens, UniProt Q00532)).
For Phosphatidylinositol 5-phosphate 4-kinase type-2 beta (PIP4K2B, Homo sapiens, UniProt P78356): remaining binding read 52%.
It gave 98% for remaining binding (cAMP-dependent protein kinase catalytic subunit beta (PRKACB, Homo sapiens, UniProt P22694)).

Sample 3
Technique: PRP chromatography estimate
Sample: 1,9-decadiene/PBS
pH: 7.4
With `CC(C)C[C@@H]1NC(=O)[C@H](CC(C)C)NC(=O)[C@H](CC(C)C)NC(=O)[C@@H](C)NC(=O)[C@H](C)NC(=O)[C@@H](CC(C)C)NC(=O)[C@H](C)NC1=O` the logD was -1.95.
`CC(C)C[C@@H]1NC(=O)[C@H](C)NC(=O)[C@@H](CC(C)C)NC(=O)[C@@H](CC(C)C)NC(=O)[C@H](C(C)C)NC(=O)[C@H](CC(C)C)NC(=O)[C@@H](CC(C)C)NC1=O` has a logD of 1.25.
`CC(C)C[C@@H]1NC(=O)[C@H](C(C)C)NC(=O)[C@H](Cc2cscn2)NC(=O)[C@@H](CC(C)C)NC(=O)[C@@H](CCC(=O)N2CCCC2)NC(=O)[C@H](CC(C)C)NC(=O)[C@@H](CC(C)C)NC1=O` has a logD of -0.2.
The logD of `CC(C)C[C@@H]1NC(=O)[C@H](C)NC(=O)[C@@H](CC(C)C)NC(=O)[C@H](C)NC(=O)[C@@H](Cc2cscn2)NC(=O)[C@H](CC(C)C)NC(=O)[C@@H](CC(C)C)NC1=O` is reported as -1.5.

Sample 4
Cell line: A-375
Tested at: 100 µM
Time: 18 h
The viability of `CC(C)c1nc(CN(C)C(=O)N[C@H](C(=O)N[C@@H](Cc2ccccc2)C[C@H](O)[C@H](Cc2ccccc2)NC(=O)OCc2cncs2)C(C)C)cs1` is reported as 16.7%.
`O=C(/C=C/C=C/c1ccc2c(c1)OCO2)N1CCCCC1` has a viability of 81.9%.
`O=C(O)CCc1nc2ccccc2[nH]1` gave a viability of 101%.
`COc1ncnc(NS(=O)(=O)c2ccc(N)cc2)c1OC` gave a viability of 78.4%.
For `Nc1ccc(/N=N/c2ccccc2)c(N)n1`, the viability was 68.6%.

Sample 5
Species: human
Sample: microsomes or S9
Tested at: 2 µM
Time: 0.5 h
With `Nc1ccc(C(=O)NC2CCc3ccccc32)cc1` (stereo not drawn) the remaining compound was 70.2%.
The remaining compound of `COc1cccc(C2CC(c3cccs3)=NN2S(C)(=O)=O)c1OC` (stereo not drawn) is reported as 0.201%.
For `c1ccc2c(c1)OCC(c1nn3c(Cn4cnc5ccccc54)nnc3s1)O2` (stereo not drawn), the remaining compound was 13.7%.
`Cc1cc(N(CC(=O)N2CCC(C(N)=O)CC2)S(C)(=O)=O)ccc1Br` gave a remaining compound of 84.9%.
With `CCc1ccccc1NC(=O)Cn1nc2n(C)c(=O)c3ccc(C(=O)NC(C)CC)cc3n2c1=O` (stereo not drawn) the remaining compound was 78.7%.
`Nc1ccc2c(c1)C(N(Cc1ncc[nH]1)c1ccc(Cl)cc1)C(O)CCO2` (stereo not drawn) gave a remaining compound of 22.5%.
For `O=C(Cn1cncn1)c1ccc(-c2ccccc2)cc1`, the remaining compound was 26.8%.

Repeated from above (sample 1):
For `Cc1nc2cc3nc(-c4cccs4)cnc3cc2n1C`, the remaining activity was 99.8%.
`Cn1nc2c3c(cccc31)C(=O)c1ccccc1-2` gave a remaining activity of 106%.
For `N#C/C(=C\c1ccc(O)c(O)c1)C(=O)NCc1ccccc1`, the remaining activity was 95.6%.
With `c1ccc(-c2[nH]ncc2-c2ccnc3ccccc23)nc1` the remaining activity was 99.9%.
`CN([C@@H](Cc1ccc(OS(=O)(=O)c2cccc3cnccc23)cc1)C(=O)N1CCN(c2ccccc2)CC1)S(=O)(=O)c1cccc2cnccc12` has a remaining activity of 102%.
`Cc1cc2ncc(-c3ccccc3)nc2cc1C` gave a remaining activity of 96.5%.
